Experimental data pooled from the literature.
Each line is one published result; not all experiments were run side by side.
Target: Tyrosine-protein kinase TXK (TXK, Homo sapiens, UniProt P42681)
Sequence (P42681 1-527, as in one of the studies): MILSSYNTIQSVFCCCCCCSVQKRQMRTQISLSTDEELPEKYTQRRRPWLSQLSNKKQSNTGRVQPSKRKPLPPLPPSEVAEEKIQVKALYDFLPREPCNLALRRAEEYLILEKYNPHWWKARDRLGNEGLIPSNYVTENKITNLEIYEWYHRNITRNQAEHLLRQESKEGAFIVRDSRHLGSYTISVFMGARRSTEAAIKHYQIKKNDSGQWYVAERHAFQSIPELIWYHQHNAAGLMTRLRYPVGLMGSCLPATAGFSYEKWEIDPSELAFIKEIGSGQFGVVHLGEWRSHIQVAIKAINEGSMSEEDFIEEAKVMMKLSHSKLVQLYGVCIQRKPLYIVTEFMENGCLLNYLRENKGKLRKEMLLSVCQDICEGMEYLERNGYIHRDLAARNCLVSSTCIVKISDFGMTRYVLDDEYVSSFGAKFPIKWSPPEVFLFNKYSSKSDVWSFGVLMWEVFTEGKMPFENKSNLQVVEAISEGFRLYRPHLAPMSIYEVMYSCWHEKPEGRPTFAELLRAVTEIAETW

SMILES	assay	test system	setting	how to read	quantity	result
CN1CCN(Cc2ccc(-c3ccc(CO[C@H]4CCC[C@@H]4NC(=O)c4cc(-c5cnn(C)c5)cnc4N)cc3)cc2)CC1	enzyme activity, inhibitor		0.1 µM		inhibition	3%
COc1c(OCCCN2CCOCC2)ccc2c1N=C(NC(=O)c1cnc(N)nc1)N1CCN=C21	kinase activity, inhibitor		1 µM	reference: untreated control	remaining activity	86%
Nc1ncc2c(n1)-c1c([nH]c3ccc(C4=CCOCC4)cc13)CCC2	binding, competition with immobilised ligand		1 µM		remaining binding	100%
Cc1ccc(C(=O)Nc2ccc(CN3CCN(C)CC3)c(C(F)(F)F)c2)cc1C#Cc1cnc2cccnn12	target engagement, NanoBRET	human cells			Hill slope	1.22
CCN1CCN(Cc2ccc(NC(=O)c3ccc(C)c(NC(=O)c4cncc(-c5cnn(C)c5)c4)c3)cc2C(F)(F)F)CC1	binding, competition with immobilised ligand		1 µM		remaining binding	1.9%
O=C(Nc1ccc(Oc2ncnc3[nH]cc(-c4ccccc4)c23)c(F)c1)c1c2n(n(-c3cc(F)ccc3F)c1=O)CCCC2	enzyme activity, inhibitor		0.5 µM		inhibition	6%
COc1ccc(NC(=O)Nc2ccc3c(c2)C(=O)N(C(C)CO)CC(C)C(CN(C)Cc2ccc4c(c2)OCO4)O3)cc1 (stereo not drawn)	kinase activity, KinaseProfiler		0.03 µM, species human	reference: control	remaining activity	101%
CNC(=O)C1CCN(c2cc(C)c(F)cc2NC(=O)c2ccc(-c3cc(O)ccc3C)c(C)c2)CC1	binding, competition with immobilised ligand		1 µM		remaining binding	9.5%
O=C=[N][Ru-4]123([n]4c5ccc(O)cc5c5c6c(c7cc(F)c[n+]1c7c54)C(=O)NC6=O)[S+]1CC[S+]2CC[S+]3CC1 (stereo not drawn)	enzyme activity		100 nM, human enzyme, added: 10 µM ATP	reference: untreated	remaining activity	99%
CC(C)=CC1OC(C)(C)C2C=C3C(=O)C(Cl)=CC(O)C3C3C(O)C4OC4C(=O)C132 (stereo not drawn)	cell-free assay, competition with immobilised ligand		10 µM		remaining binding	92%
COc1cc(Nc2nccc(-c3cnn4nc(OC)ccc34)n2)cc(C(F)(F)F)c1	binding, competition with immobilised ligand		1 µM		remaining binding	100%
Cc1ccc(-c2c(/C=C(\C#N)C(=O)NC(C)C)n(CCCO)c3ncnc(N)c23)cc1	cell-free assay, competition with immobilised ligand		1 µM		remaining binding	100%
NC(=O)[C@@H](O)C[C@H]1CCc2sc3ncnc(O[C@H]4CC[C@H](N5CCOCC5)CC4)c3c21	enzyme activity, inhibitor		10 µM		inhibition	79%
Cc1cccc(O[C@H]2CCC[C@@H](C(C)CNCc3ccncc3)C2)c1 (relative stereo)	enzyme activity, inhibitor		1 µM		inhibition	7%
C=CC(=O)Nc1cccc(-c2cnc3[nH]cc(C(=O)NC(C)(C)C)c3n2)c1	enzyme activity, inhibitor		0.1 µM		inhibition	56%

Some of these lines once more:
SMILES	assay	test system	setting	how to read	quantity	result
Nc1ncc2c(n1)-c1c([nH]c3ccc(C4=CCOCC4)cc13)CCC2	binding, competition with immobilised ligand		1 µM		remaining binding	100%
COc1c(OCCCN2CCOCC2)ccc2c1N=C(NC(=O)c1cnc(N)nc1)N1CCN=C21	kinase activity, inhibitor		1 µM	reference: untreated control	remaining activity	86%
